Published values collected from several papers.
Protocols differ between the studies behind these lines. Numbers after ± are the reported error.

The remaining compound of `Cc1ccc(OCC(=O)N(Cc2cccs2)c2ccn[nH]2)cc1` is reported as over 98% (Sprague-Dawley rat, liver microsomes; 10 µM, 0 min).
`Cc1ccccc1/N=N/c1ccc(/N=N/c2c(O)ccc3ccccc23)c(C)c1` has a measured concentration of 0.503 µg/L (rat whole blood extract; 0.5 µg/L, 30 days, -20 °C, long-term storage).
`COC(=O)C(c1ccccc1Cl)N1CCC(SCC(=O)c2cccc(OC)c2)C(=CC(=O)O)C1` (mixture of isomers) — result for “deviation from nominal”: 6% (HPLC-MS/MS; feline citrate plasma; 100 ng/mL, 48 h, 4 °C, storage stability).
The LDL level of `C=C(c1ncc(C(=O)O)cn1)c1cc2c(cc1C)C(C)(C)CCC2(C)C` is reported as 4 ± 1 mg/dL (Sprague-Dawley rat, male, plasma; oral, 100 mg/kg, 24 h, sesame oil vehicle).
Under “intrinsic aqueous solubility”, `O=S1(=O)CC2CCCCC2CS1` (stereo not shown) is recorded as 1620 µM (phase-solubility with β-cyclodextrin, NMR; water; 25.0 °C).
The AUC(0-24 h) of `CC(C)(C)ONc1nc(Nc2ccnc(C(F)(F)F)c2)nc(-c2cccc(C(F)(F)F)n2)n1` is reported as 25100 ng·h/mL (female Balb/cA nude mice xenograft, plasma; oral, 18.05 mg/kg).
For `CC(C)[C@H](NC(=O)CNC(=O)[C@H](CCC(N)=O)NC(=O)[C@H](C)N)C(=O)O`, the Cmax was 5820 ng/mL (LC-MS/MS; human, male, plasma; intravenous, 30 mg/kg three times daily, day 1, first dose, 10 min infusion, geometric mean).
For `CC(C)(C)NC(=O)NC1CC=C(c2cc3c(Nc4cc5ncsc5cc4F)ncnc3s2)CC1` (racemic), the intrinsic clearance was under 12 mL/min/g protein (human liver microsomes; 1 µM).
`CCCCCCCC(=O)OC[C@H](NC(=O)[C@H](CO)NC(=O)CN)C(=O)N[C@@H](Cc1ccccc1)C(=O)N[C@@H](CC(C)C)C(=O)N[C@@H](CO)C(=O)N1CCC[C@H]1C(=O)N[C@@H](CCC(=O)O)C(=O)N[C@@H](Cc1cnc[nH]1)C(=O)N[C@@H](CCC(N)=O)C(=O)N[C@@H](CCCNC(=N)N)C(=O)N[C@H](C(=O)N[C@@H](CCC(N)=O)C(=O)N[C@@H](CCC(N)=O)C(=O)N[C@@H](CCCNC(=N)N)C(=O)N[C@@H](CCCCN)C(=O)N[C@@H](CCC(=O)O)C(=O)N[C@@H](CO)C(=O)N[C@@H](CCCCN)C(=O)N[C@@H](CCCCN)C(=O)N1CCC[C@H]1C(=O)N1CCC[C@H]1C(=O)N[C@@H](C)C(=O)N[C@@H](CCCCN)C(=O)N[C@@H](CC(C)C)C(=O)N[C@@H](CCC(N)=O)C(=O)N1CCC[C@H]1C(=O)N[C@@H](CCCNC(=N)N)C(=O)O)C(C)C` has a thirst score of 5 (patients with chronic HFrEF; iv infusion, 0.1 µg/kg/min, end of 120 min infusion, scale 1-10, median; direction not given).
`CC[C@H](C)[C@H](NC(=O)[C@H](CCCCN)NC(=O)[C@H](CS)NC(=O)[C@H](CC(N)=O)NC(=O)[C@H](C)NC(=O)[C@H](CCCNC(=N)N)NC(=O)[C@H](CCCNC(=N)N)NC(=O)[C@H](CC(N)=O)NC(=O)[C@H](CCCNC(=N)N)NC(=O)[C@@H](NC(=O)[C@H](CCCNC(=N)N)NC(=O)[C@H](CS)NC(=O)[C@H](CO)NC(=O)[C@@H](NC(=O)[C@@H](NC(=O)[C@H](CS)NC(=O)[C@H](CCCCN)NC(=O)[C@@H](N)CCCNC(=N)N)C(C)C)[C@@H](C)CC)[C@@H](C)CC)C(=O)N[C@@H](CC(C)C)C(=O)N[C@@H](CS)C(=O)N[C@@H](CC(N)=O)C(=O)O`: “single disulfide form” 2% (LC-MS; PBS; 0.1 mg/mL).
`CC(C)c1cnc(-c2cc(Cl)ccc2F)cc1Nc1ccncc1C(=O)NC(CO)CO`: “patients with treatment-related adverse event” 0% (monotherapy, refers to: fatigue; human patients; oral, dose not given, grade 4, phase I A).
`Cn1c(=O)oc2ccc(-c3ccc(CC(C#N)NC(=O)C4CNCCCO4)c(F)c3)cc21` (stereo not shown) — result for tolerability: “not toxic” (human volunteers; dose not given, parts A and B).
The apparent half-life of `CC(C)C[C@@H](NC(=O)[C@H](NC(=O)[C@H]1CCCN1)[C@H](C)O)C(=O)N[C@H](Cc1c[nH]cn1)C(=O)N[C@@H](C(=O)N[C@H](Cc1c[nH]cn1)C(=O)N[C@H](CC(N)=O)C(=O)N[C@H](CCCNC(=N)N)C(=O)N[C@H](CCCNC(=N)N)C(=O)N[C@H](CCCNC(=N)N)C(=O)N[C@H](CCCNC(=N)N)C(=O)N[C@H](CCCNC(=N)N)C(N)=O)[C@H](C)O` is reported as 119 ± 37 h (Beagle dog, CSF; oral, 50 mg/kg, last 2 time points).
With `CCCC[C@@H]1NC(=O)[C@@H](NC(=O)[C@H](CCC(=O)O)NC(=O)CNC(=O)CN2CCN(CC(=O)O)CCN(CC(=O)O)CCN(CC(=O)O)CC2)CCCCNC(=O)C[C@@H](C(N)=O)NC(=O)[C@H](C(C)C)NC(=O)[C@@H]2CCCN2C(=O)[C@H](CCCNC(=N)N)NC(=O)CNC(=O)[C@H](Cc2c[nH]c3ccccc23)NC(=O)[C@H](CCCNC(=N)N)NC(=O)[C@@H](Cc2ccccc2)NC(=O)[C@H](Cc2c[nH]cn2)NC(=O)[C@H](CCC(=O)O)NC1=O` [gallium-67 labelled] the tumour uptake was 12.9 ± 1.63 %ID/g (C57 mice, B16/F1 flank melanoma, tumour; intravenous, 0.037 MBq, 2 h).
The remaining compound of `COc1cc(NC(C)=O)c2c(c1O)-c1c(OC)c(OC)cc3c1C(C2)N(C)CC3` (stereo not shown) is reported as 93 ± 2% (rat kidney homogenate; 50 µg/mL, time not given, three freeze-thaw cycles).
`C[C@H](NC(=O)COC(=O)[C@H](C)NC(=O)CO)C(=O)O` gave a depolymerization half-life of 1.8 min (water; pH 7, 50 °C).
`Cc1cccc(CSc2nc(N)c(C#N)c(-c3cccc(O[11CH3])c3)c2C#N)n1`: “parent compound fraction” about 23% (radio-HPLC; rat, plasma; 15 min).
For `CCNC(=O)c1noc(-c2cc(C(C)C)c(O)cc2O)c1NC(=O)CCN1CCOCC1`, “body weight loss” read 2% (athymic nude mice, MV4-11 xenograft; intraperitoneal, 200 mg/kg, every 2 days for 3 weeks).
`N=C(N)NCCC[C@@H]1NC(=O)[C@H](Cc2c[nH]c3ccccc23)NC(=O)[C@@H](CC2CCCCC2)NC(=O)[C@@H]2CCCN2C(=O)[C@@H](NC(=O)CCc2ccccc2)CCCNC1=O`: “apparent central volume (V1/F)” 0.13 µg/(ng/g) (C57BL/6J mice, brain; intravenous, 1 mg/kg, two-compartment model).
`COc1cc2ncnc(Oc3ccc4c(C(N)=O)c(C)oc4c3)c2cc1OC` — result for “decrease in exposure”: about 22% (refers to: AUC0-inf; human, severe renal impairment; oral; baseline: normal renal function).
For `CCc1cc(C)n2nc(-c3ccc(OCC[18F])cc3)c(CC(=O)N(CC)CC)c2n1`, “parent radioligand in plasma” read 46.6% (rat, plasma; 60 min).
Under “total volume of distribution”, `CC[C@@H](C)N([11CH3])C(=O)c1nc(-c2ccc(Cl)cc2)c2ccccc2n1` is recorded as 25.6 mL/cm³ (PET Logan analysis; male rhesus monkey, cerebellum; intravenous, dose not given, baseline).
For `Cc1[nH]nc2c1N=C(c1ccccc1Cl)c1cnc(N(CCO)CCO)cc1N2`, the faecal excretion was 2.74% (human male, faeces; oral, 10 mg, 0-192 h; baseline: dose).
`C[Si](C)(C[C@@H](CN)CC(=O)O)C1CC1` gave a performance time of 180 s (neuromuscular coordination; Wistar rat male; oral, 300 mg/kg, 2 h).
`Cc1cc(NC(=O)[C@H](O)c2cc(F)cc(F)c2)ccc1-c1cnc(N)c(C(=O)NC(C)C)c1` has a free Cmax of 186 nM (mouse, athymic nude Foxn1nu, female, plasma; oral, 30 mg/kg).
`C=C(c1ccc(C(=O)O)c(F)c1)c1cc2c(cc1C)C(C)(C)C=CC2(C)C` gave an LDL level of 4 ± 1 mg/dL (Sprague-Dawley rat, male, plasma; oral, 100 mg/kg, 12 h, sesame oil vehicle).
`COc1ccc2cc(-c3ccc(-c4ccc(C)cn4)nc3)oc2c1` has a fluorescence lifetime of 1.12 ns (TCSPC; hexanes).
`[11CH3]c1ccc2nc(C3CCC3)n(-c3ccc4[nH]ncc4c3)c2n1` gave an absorbed dose of 2.7 µSv/MBq (extrapolated from mouse biodistribution; human female, red marrow).
With `CC/C=C\C/C=C\C/C=C\C/C=C\C/C=C\CCCCOC(CC)C(=O)O` (stereo not shown) the tissue concentration was 174 µg/g (14C radiolabel; Wistar rats male, liver; oral, 100 mg/kg, 4 h).
`CCCC(CCC(=O)O)NC(=O)c1ccc2c(c1)OCO2` (stereo not shown) gave an AUC(0-last) ratio of 2.59 (female Sprague-Dawley rats, plasma; oral, 50 mg/kg of parent drug; baseline: 50 over 20 mg/kg dose).
`CC[C@H](C)[C@H](NC(=O)[C@H](CC(C)C)NC(=O)[C@H](Cc1c[nH]c2ccccc12)NC(=O)[C@H](C)NC(=O)[C@@H](NC(=O)[C@H](Cc1ccccc1)NC(=O)[C@H](CC(=O)O)NC(=O)[C@H](CCCNC(=N)N)NC(=O)[C@H](C)NC(=O)[C@H](C)NC(=O)[C@H](CC(C)C)NC(=O)[C@H](C)NC(=O)[C@H](CC(=O)O)NC(=O)[C@H](CC(C)C)NC(=O)[C@@H](NC(=O)[C@@H](NC(=O)[C@H](C)NC(=O)[C@H](CC(C)C)NC(=O)[C@H](CCC(=O)O)NC(=O)[C@H](CO)NC(=O)[C@H](CO)NC(=O)[C@H](Cc1ccccc1)NC(=O)[C@@H](NC(=O)CNC(=O)[C@H](CCC(=O)O)NC(=O)CNC(=O)[C@@H](N)Cc1c[nH]cn1)[C@@H](C)O)[C@@H](C)O)[C@@H](C)CC)[C@@H](C)CC)C(=O)N[C@@H](C)C(=O)N[C@H](C(=O)N[C@@H](CCCCN)C(=O)N[C@H](C(=O)N[C@H](C(=O)N[C@@H](CC(=O)O)C(=O)N[C@@H](CCCCN)C(=O)O)[C@@H](C)O)[C@@H](C)CC)[C@@H](C)O` has an AUCinf of 2.93 nM·h (immunoaffinity LC-MS/MS; healthy human subjects, plasma; intravenous infusion, 1 mg single dose, infused over 15 min).
`COCC1CN(C2CCN(c3cc(OC)c(Nc4ncc(Br)c(Nc5ccc6c(c5P(C)(C)=O)OCCO6)n4)cc3C)CC2)C1` — result for “grade ≥3 decreased ejection fraction”: 3.7% (human; oral, dose not given; baseline: patients).
For `CC(C)(O)c1ncc([S@](N)(=O)=NC(=O)Nc2c3c(cc4c2CCC4)CCC3)s1`, the Cmax was 2030 ng/mL (healthy human, fed; oral, 25 mg twice daily, day 1, tablet formulation, geometric mean).
The tissue uptake of `CCCC[C@H](NC(=O)CNC(=O)CNC(=O)CN1CCN(CC(=O)O)CCN(CC(=O)O)CC1)C(=O)N[C@H]1CC(=O)NCCCC[C@@H](C(N)=O)NC(=O)[C@H](Cc2c[nH]c3ccccc23)NC(=O)[C@H](CCCNC(=N)N)NC(=O)[C@@H](Cc2ccccc2)NC(=O)[C@H](Cc2c[nH]cn2)NC1=O` [gallium-67 labelled] is reported as 0.54 ± 0.35 %ID/g (female C57 mice, B16/F1 melanoma, skin; intravenous, 0.037 MBq, 2 h).
`Cc1ccc(NCC(=O)Nc2ccc(F)c(Cl)c2)cc1CN1CCOCC1` has a kinetic solubility of over 250 µM (water).
`C#CCOc1ccc(/C=C2\SC(=O)N(CC(=O)NCc3ccccc3)C2=O)cc1`: “Kirkwood-Buff integral G1,3” -290 cm³/mol (inverse Kirkwood-Buff integrals; binary solvent mixture; 298.15 K, mole fraction x1 0.20).
`CC(C)CCCC(C)CCCC(C)CCOC1O[C@H](CO)[C@@H](O)[C@H](O)[C@@H]1O` (stereo partly shown) — result for “surface tension at CMC”: 27.2 mN/m (drop shape tensiometry; water; room temperature).

A few entries again:
The AUC(0-24 h) of `CC(C)(C)ONc1nc(Nc2ccnc(C(F)(F)F)c2)nc(-c2cccc(C(F)(F)F)n2)n1` is reported as 25100 ng·h/mL (female Balb/cA nude mice xenograft, plasma; oral, 18.05 mg/kg).
`C#CCOc1ccc(/C=C2\SC(=O)N(CC(=O)NCc3ccccc3)C2=O)cc1`: “Kirkwood-Buff integral G1,3” -290 cm³/mol (inverse Kirkwood-Buff integrals; binary solvent mixture; 298.15 K, mole fraction x1 0.20).
